Measurements gathered from unrelated publications.
Compare with care: the assays were run in different laboratories.
B1: rpoN 60-135 (Aquifex aeolicus, UniProt O66858); sequence looked up; chain KETVPYQIPYTPSELEELQQNIKLELEGKEQELALELLNYLNEKGFLSKSVEEISDVLRCSVEELEKVRQKVLRLE
B2: SF3B1 454-1304 K700E (Homo sapiens, UniProt O75533); chain KSVNDQPSGNLPFLKPDDIQYFDKLLVDVDESTLSPEEQKERKIMKLLLKIKNGTPPMRKAALRQITDKAREFGAGPLFNQILPLLMSPTLEDQERHLLVKVIDRILYKLDDLVRPYVHKILVVIEPLLIDEDYYARVEGREIISNLAKAAGLATMISTMRPDIDNMDEYVRNTTARAFAVVASALGIPSLLPFLKAVCKSKKSWQARHTGIKIVQQIAILMGCAILPHLRSLVEIIEHGLVDEQQEVRTISALAIAALAEAATPYGIESFDSVLKPLWKGIRQHRGKGLAAFLKAIGYLIPLMDAEYANYYTREVMLILIREFQSPDEEMKKIVLKVVKQCCGTDGVEANYIKTEILPPFFKHFWQHRMALDRRNYRQLVDTTVELANKVGAAEIISRIVDDLKDEAEQYRKMVMETIEKIMGNLGAADIDHKLEEQLIDGILYAFQEQTTEDSVMLNGFGTVVNALGKRVKPYLPQICGTVLWRLNNKSAKVRQQAADLISRTAVVMKTCQEEKLMGHLGVVLYEYLGEEYPEVLGSILGALKAIVNVIGMHKMTPPIKDLLPRLTPILKNRHEKVQENCIDLVGRIADRGAEYVSAREWMRICFELLELLKAHKKAIRRATVNTFGYIAKAIGPHDVLATLLNNLKVQERQNRVCTTVAIAIVAETCSPFTVLPALMNEYRVPELNVQNGVLKSLSFLFEYIGEMGKDYIYAVTPLLEDALMDRDLVHRQTASAVVQHMSLGVYGFGCEDSLNHLLNYVWPNVFETSPHVIQAVMGALEGLRVAIGPCRMLQYCLQGLFHPARKVRDVYWKIYNSIYIGSQDALIAHYPRIYNDDKNTYIRYELDYIL
B3: Secisbp2 586-846 (Rattus norvegicus, UniProt Q9QX72); sequence looked up; chain VEGESEEPAGTEFQRDPEACQPAPDSATFPKIHSRRFRDYCSQMLSKEVDACVTGLLKELVRFQDRMYQKDPVKAKTKRRLVLGLREVLKHLKLRKLKCIIISPNCEKTQSKGGLDDTLHTIIDCACEQNIPFVFALNRKALGRSLNKAVPVSIVGIFSYDGAQDQFHKMVELTMAARQAYKTMLETMRQEQAGEPGPQTPPSPPMQDPIQSTDEGTLASTGEEPHYIEIWRKHLEAYSQHALELEDSLEASTSQMMNLNL
B4: SIS1 residues 1-121 (Saccharomyces cerevisiae, UniProt P25294); chain SMVKETKLYDLLGVSPSANEQELKKGYRKAALKYHPDKPTGDTEKFKEISEAFEILNDPQKREIYDQYGLEAARSGGPSFGPGGPGGAGGAGGFPGGAGGFSGGHAFSNEDAFNIFSQFFGG
B5: CCDC22/CCDC93 DBD dimer (Homo sapiens); chain 1 GAGAKTGAPKGSRFTHSEKFTFHLEPQAQATQVSDVPATSRRPEQVTWAAQEQELESLREQLEGVNRSIEEVEADMKTLGVSFVQAESECRHSKLSTAEREQALRLKSRAVELLPDGTANLAKLQLVVENSAQRVIHLAGQWEKHRVPLLAEYRHLRKLQDCRELES; chain 2 SPEKLGTSQLHRRKVISLNKQIAQKTKHLEELRASHTSLQARYNEAKKTLTELKTYSEKLDKEQAALEKIESKADPSILQNLRALVAMNENLKSQEQEFKAHCREEMTRLQQEIENLKAERAPRGDEKT
B6: RAB32 T39N (Homo sapiens, UniProt Q13637); sequence looked up; chain MAGGGAGDPGLGAAAAPAPETREHLFKVLVIGELGVGKNSIIKRYVHQLFSQHYRATIGVDFALKVLNWDSRTLVRLQLWDIAGQERFGNMTRVYYKEAVGAFVVFDISRSSTFEAVLKWKSDLDSKVHLPNGSPIPAVLLANKCDQNKDSSQSPSQVDQFCKEHGFAGWFETSAKDNINIEEAARFLVEKILVNHQSFPNEENDVDKIKLDQETLRAENKSQCC
B7: PRIM2 1-265 (Homo sapiens, UniProt P49643); sequence looked up; chain MEFSGRKWRKLRLAGDQRNASYPHCLQFYLQPPSENISLIEFENLAIDRVKLLKSVENLGVSYVKGTEQYQSKLESELRKLKFSYRENLEDEYEPRRRDHISHFILRLAYCQSEELRRWFIQQEMDLLRFRFSILPKDKIQDFLKDSQLQFEAISDEEKTLREQEIVASSPSLSGLKLGFESIYKIPFADALDLFRGRKVYLEDGFAYVPLKDIVAIILNEFRAKLSKALALTARSLPAVQSDERLQPLLNHLSHSYTGQDYSTQ
B8: Sgip1 69-156 (Mus musculus, UniProt Q8VD37); chain AEIDWERYNSPELDEEGYSIRPEEPGSTKGKHFYSSSESEEEEESHKKFNIKIKPLQSKDVLKNAATVDELKASIGNIALSPSPVRKS
B9: rasC Q62L/R164E (Dictyostelium discoideum, UniProt P32253); sequence looked up; chain MSKLLKLVIVGDGGVGKSALTIQLTQNQFIAEYDPTIENSYRKQVNIDEEVYMLDILDTAGLEEYSAMRDQYIRSGRGFLIVYSIISRASFEAVTTFREQILRVKDLSTYPIVIIGNKADLPDKDRKVPPMEGKELAKSFGAPFLETSAKSRVNVEEAFFTLVEEIKRWNQNPQNEEMLPPKKRGCIIL
B10: gld-3 860-949 (Caenorhabditis elegans, UniProt Q95ZK7); sequence looked up; chain NGVTKTILEPRARVEKDYGKISLEHKTKYSNEYGDEEKSAENDTSSLGSRQYRIDPMKLIASVRESSEQLPRIHERQFSDVLNEKEKEIA
B11: SIN4 1-974 (Saccharomyces cerevisiae, UniProt P32259); chain MMLGEHLMSWSKTGIIAYSDSQSSNANICLTFLESINGINWRFHTPQKYVLHPQLHEVQYQESSSTLSTHSTTTSVNGSTTAGVGSTPNFGGNSNKSPPQFFYNISSIHWNNWFSLPGDMLAVCDELGNMTMLITGQRPDRATTYEKLTMVFQDNVYKIYNHVMPLKPVDKLKPMNIERKQTRKEYNTSILEFRWLTSSKSVIVSQFCAFDSSSNTYRSRAQQVPPYGVYHPPFIKYACLAIRKNGQIDFWYQFSNSKDHKKITLQLLDTSNQRFKDLQWLEFARITPMNDDQCMLITTYSKLSKNISFYKLHVNWNLNATKPNVLNDPSLKIQFILSTTLDPTDDEGHVLKLENLHVVSKSSIEKDPSPEILVLYNVCDTSKSLVKRYRLAPTQLSAEYLVILKPDLNIDRNNSTNQIFQSRRYNLRRHSDIVLDKKVTLITSEMFDAFVSFYFEDGTIESYNQNDWKLETERLISQSQLGKFKNIIASPLSAGFNYGKLPLPPSVEWMKVSPSMCGVIVKQYNKKWPQFYAAVQKNYADPEKDSINATALAFGYVKSLHKQISAEDLTIAAKTHILRISFLDRKRAKEFITTLLKSLYSFFNISPDAPKEIMDKIITSRPLQKIMLLQLELGSCFSQENIEEMARVILYLKNVLFAFNGVARNFHFAIEQISNNSNQQQNPKLFQTIFSKQDLIHSLIPVAKWFVKFITYLTQEILILINDPTNKEYTLVHGIFGAKMSRTLILSILNEIKKVTQIVAKFPETSYPILNESSTFLKLVLSESPVDFEKFETFLVDVNNKFIALCEQQPSQEREFSLLVKAEIPPEYAKVGDFLLQYANNAVISHANAAAVYFADTSGLKISNSEFFNPEIFHLLQPLEEGLIIDTDKLPIKNRTSKSFSKLLYDDVTCDKLSVSEISDGKLKRCSRCGSVTRAGNIISSDKTIVPTSIQTKRWPTMYTRLCICSGMLFEMDG
B12: SPP1 R5K (Saccharomyces cerevisiae, UniProt Q03012); chain MSLPQWCPPHSTLKRNPTTGEDVYCICKRPDYGELMVGCDGCDDWFHFTCLHIPEQFKDLVFSFYCPYCQAGITGKNKDAIINGEGSLPKTLWKRKCRISDCYKPCLQDSKYCSEEHGREFVNDIWSRLKTDEDRAVVKKMVEQTGHIDKFKKFGQLDFIDNNIVVKTDDEKEIFDQIVVRDMTLKTLEDDLQEVQEISLPLFKKKLELLEVYLGWLDNVYTEMRKLDDDAASHVECGKEDSKGTAAAAAANSSRSRARKNICGYCSTYERIPCSVEEFVRDFGSNEEATKIHEVCTKWKCNRHLDWVSTNQEQYLQQIDSLESMQERLQHLIQARKKQLNIQYYEEILRRGL
B13: MDM4 23-111, p53-binding domain (Homo sapiens, UniProt O15151); chain GPLGSQINQVRPKLPLLKILHAAGAQGEMFTVKEVMHYLGQYIMVKQLYDQQEQHMVYCGGDLLGELLGRQSFSVKDPSPLYDMLRKNLVTLAT
B14: HCK 78-138 (Homo sapiens, UniProt P08631); chain SEDIIVVALYDYEAIHHEDLSFQKGDQMVVLEESGEWWKARSLATRKEGYIPSNYVARVDS
B15: PSMA4 (Homo sapiens, UniProt P25789); chain MSRRYDSRTTIFSPEGRLYQVEYAMEAIGHAGTCLGILANDGVLLAAERRNIHKLLDEVFFSEKIYKLNEDMACSVAGITSDANVLTNELRLIAQRYLLQYQEPIPCEQLVTALCDIKQAYTQFGGKRPFGVSLLYIGWDKHYGFQLYQSDPSGNYGGWKATCIGNNSAAAVSMLKQDYKEGEMTLKSALALAIKVLNKTMDVSKLSAEKVEIATLTRENGKTVIRVLKQKEVEQLIKKHEEEEAKAEREKKEKEQKEKDK
Sequence of UniProt P27986 (whole entry, looked up): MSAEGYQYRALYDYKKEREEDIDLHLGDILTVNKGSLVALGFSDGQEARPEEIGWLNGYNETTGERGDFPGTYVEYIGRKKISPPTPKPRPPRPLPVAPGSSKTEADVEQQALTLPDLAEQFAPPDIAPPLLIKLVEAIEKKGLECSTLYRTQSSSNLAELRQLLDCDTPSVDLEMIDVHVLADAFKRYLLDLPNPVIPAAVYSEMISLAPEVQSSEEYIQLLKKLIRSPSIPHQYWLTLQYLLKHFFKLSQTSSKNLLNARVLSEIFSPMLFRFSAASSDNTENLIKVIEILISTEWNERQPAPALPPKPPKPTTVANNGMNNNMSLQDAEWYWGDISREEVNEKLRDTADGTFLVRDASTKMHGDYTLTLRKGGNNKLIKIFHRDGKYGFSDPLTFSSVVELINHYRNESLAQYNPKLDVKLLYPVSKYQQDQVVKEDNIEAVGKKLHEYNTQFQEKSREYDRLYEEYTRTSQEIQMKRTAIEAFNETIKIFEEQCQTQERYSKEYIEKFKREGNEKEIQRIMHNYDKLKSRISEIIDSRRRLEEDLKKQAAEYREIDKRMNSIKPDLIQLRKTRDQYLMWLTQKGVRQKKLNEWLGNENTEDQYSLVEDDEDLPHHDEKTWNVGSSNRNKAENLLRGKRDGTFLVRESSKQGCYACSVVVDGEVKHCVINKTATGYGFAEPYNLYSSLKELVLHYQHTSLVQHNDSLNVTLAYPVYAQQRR
Sequence of UniProt P49642 (whole entry, looked up): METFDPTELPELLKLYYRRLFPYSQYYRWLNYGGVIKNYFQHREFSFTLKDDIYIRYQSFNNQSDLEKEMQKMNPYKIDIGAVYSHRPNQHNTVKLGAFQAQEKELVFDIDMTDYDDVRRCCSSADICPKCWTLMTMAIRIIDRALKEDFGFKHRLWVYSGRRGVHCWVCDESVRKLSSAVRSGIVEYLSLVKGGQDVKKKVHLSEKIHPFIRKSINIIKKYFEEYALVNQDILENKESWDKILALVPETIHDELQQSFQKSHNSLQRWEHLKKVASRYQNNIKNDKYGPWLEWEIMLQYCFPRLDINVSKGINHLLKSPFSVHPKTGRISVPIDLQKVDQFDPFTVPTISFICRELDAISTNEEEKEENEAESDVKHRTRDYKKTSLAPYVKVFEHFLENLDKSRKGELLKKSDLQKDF
Sequence of UniProt Q8WU20 (whole entry, looked up): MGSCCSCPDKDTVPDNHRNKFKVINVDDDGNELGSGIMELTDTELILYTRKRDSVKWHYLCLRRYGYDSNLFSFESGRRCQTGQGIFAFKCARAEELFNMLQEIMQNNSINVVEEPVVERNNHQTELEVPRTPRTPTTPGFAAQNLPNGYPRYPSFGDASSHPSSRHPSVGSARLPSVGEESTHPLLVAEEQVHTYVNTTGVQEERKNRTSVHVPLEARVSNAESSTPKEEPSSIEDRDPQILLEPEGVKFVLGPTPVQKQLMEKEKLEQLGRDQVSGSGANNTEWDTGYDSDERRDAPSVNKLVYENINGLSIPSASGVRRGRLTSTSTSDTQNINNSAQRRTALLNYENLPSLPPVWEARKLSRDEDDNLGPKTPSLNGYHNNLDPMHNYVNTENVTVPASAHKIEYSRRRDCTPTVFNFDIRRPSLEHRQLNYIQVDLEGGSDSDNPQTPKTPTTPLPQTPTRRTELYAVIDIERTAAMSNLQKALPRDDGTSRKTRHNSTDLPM
Sequence of UniProt O94267 (whole entry, looked up): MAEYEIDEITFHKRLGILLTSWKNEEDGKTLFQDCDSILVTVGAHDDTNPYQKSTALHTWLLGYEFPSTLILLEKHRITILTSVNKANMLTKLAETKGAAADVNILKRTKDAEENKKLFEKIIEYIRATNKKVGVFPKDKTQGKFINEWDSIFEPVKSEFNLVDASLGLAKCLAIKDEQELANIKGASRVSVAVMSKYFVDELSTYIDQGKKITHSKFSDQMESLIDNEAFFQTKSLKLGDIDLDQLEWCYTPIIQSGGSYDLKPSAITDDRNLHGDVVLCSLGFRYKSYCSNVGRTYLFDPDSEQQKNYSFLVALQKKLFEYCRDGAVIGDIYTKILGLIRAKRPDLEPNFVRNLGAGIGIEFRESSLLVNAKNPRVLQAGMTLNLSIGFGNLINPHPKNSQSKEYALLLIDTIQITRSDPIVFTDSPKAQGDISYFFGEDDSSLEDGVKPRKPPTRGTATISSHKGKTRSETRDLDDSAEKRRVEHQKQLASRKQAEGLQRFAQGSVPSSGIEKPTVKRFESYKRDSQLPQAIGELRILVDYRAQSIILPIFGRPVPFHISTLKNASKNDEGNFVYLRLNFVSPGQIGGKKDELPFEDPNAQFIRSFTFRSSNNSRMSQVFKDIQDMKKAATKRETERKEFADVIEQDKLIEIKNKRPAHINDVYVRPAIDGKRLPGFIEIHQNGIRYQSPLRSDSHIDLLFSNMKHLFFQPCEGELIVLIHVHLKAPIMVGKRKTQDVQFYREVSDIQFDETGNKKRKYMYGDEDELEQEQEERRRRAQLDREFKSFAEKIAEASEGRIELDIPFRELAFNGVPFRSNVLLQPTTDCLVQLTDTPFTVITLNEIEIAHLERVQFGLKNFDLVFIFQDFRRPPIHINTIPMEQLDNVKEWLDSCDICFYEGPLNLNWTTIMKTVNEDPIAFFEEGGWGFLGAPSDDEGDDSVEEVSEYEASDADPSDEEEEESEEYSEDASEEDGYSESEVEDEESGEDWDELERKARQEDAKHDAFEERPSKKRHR
Sequence of UniProt Q09312 (whole entry, looked up): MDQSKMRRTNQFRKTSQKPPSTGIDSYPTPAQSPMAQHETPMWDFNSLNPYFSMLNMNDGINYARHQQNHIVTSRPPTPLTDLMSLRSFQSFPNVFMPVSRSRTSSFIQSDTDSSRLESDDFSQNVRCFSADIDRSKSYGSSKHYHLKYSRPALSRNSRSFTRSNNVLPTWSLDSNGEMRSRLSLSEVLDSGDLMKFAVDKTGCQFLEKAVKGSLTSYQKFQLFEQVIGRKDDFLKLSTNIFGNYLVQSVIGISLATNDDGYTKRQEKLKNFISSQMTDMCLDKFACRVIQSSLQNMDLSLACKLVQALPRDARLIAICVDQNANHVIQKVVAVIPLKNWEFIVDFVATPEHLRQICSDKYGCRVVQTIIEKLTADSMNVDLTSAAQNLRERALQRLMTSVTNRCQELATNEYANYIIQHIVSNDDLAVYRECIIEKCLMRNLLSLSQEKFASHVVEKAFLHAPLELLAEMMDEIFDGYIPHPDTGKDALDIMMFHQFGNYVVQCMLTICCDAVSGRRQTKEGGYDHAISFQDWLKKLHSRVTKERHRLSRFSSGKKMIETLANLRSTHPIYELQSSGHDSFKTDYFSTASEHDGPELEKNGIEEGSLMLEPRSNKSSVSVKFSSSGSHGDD
Sequence of UniProt Q8TCE6 (whole entry, looked up): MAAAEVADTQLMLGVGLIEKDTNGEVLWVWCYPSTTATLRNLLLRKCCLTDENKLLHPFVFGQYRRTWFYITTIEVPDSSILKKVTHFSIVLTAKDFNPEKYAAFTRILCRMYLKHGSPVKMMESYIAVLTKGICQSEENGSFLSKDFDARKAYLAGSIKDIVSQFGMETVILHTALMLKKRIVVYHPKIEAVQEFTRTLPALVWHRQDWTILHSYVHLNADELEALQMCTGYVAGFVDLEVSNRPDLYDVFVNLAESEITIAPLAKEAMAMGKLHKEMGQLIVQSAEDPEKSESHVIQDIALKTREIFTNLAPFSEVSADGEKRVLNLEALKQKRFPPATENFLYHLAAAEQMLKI
Sequence of UniProt P19659 (whole entry, looked up): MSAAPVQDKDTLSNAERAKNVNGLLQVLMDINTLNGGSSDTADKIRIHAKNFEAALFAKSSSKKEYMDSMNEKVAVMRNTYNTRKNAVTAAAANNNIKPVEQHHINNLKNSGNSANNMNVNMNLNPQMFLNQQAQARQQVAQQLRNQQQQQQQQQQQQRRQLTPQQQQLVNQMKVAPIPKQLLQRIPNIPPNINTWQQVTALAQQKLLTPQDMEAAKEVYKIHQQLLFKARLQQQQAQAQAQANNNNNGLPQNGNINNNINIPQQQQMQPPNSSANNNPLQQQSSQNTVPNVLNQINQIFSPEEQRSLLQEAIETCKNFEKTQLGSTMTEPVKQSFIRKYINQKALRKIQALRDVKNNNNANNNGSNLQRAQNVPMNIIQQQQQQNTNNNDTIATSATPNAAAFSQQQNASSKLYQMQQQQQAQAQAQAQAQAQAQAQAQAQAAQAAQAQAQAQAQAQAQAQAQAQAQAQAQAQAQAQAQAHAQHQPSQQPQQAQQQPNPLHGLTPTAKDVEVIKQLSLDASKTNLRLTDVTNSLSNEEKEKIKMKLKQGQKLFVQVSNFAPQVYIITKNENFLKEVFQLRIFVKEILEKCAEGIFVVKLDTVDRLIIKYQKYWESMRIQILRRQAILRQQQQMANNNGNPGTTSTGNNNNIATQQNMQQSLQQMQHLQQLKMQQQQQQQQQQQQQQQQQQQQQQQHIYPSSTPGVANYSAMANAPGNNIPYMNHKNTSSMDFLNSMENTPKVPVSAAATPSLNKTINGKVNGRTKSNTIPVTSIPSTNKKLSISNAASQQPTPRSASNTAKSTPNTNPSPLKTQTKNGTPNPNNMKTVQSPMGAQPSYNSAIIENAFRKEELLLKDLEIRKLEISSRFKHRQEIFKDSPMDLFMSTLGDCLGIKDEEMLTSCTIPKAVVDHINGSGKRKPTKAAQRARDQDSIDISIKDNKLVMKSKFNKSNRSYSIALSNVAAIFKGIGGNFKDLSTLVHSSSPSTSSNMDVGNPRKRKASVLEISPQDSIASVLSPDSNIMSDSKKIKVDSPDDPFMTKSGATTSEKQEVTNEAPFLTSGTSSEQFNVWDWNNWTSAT
Sequence of UniProt O95456 (whole entry, looked up): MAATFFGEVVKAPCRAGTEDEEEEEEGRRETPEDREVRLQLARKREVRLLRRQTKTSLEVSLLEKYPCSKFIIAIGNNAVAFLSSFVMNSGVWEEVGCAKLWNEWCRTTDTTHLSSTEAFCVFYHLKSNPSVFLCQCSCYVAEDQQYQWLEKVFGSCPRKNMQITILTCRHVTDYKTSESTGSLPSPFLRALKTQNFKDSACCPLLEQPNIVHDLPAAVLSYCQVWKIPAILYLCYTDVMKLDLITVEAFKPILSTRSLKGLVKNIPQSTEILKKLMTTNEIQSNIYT

For `B1 (rpoN 60-135)`, binding read “binds” (rpoN 138-240 (Aquifex aeolicus, UniProt O66858); NMR titration).
`B2 (SF3B1 454-1304 K700E)`: binding “binds” (SF3B3 (Homo sapiens, UniProt Q15393); cryo-EM).
`B3 (Secisbp2 586-846)` — result for binding: “binds” (Eefsec (Mus musculus, UniProt Q9JHW4); EMSA).
For `B4 (SIS1 residues 1-121)`, binding read “binds” (SSA1 T201A (Saccharomyces cerevisiae, UniProt P10591); NMR titration; added: ATP).
`GPDAVIIGMTKIPVIENPQYFGI (NTRK2 residues 493-515; pY512)` — result for binding: “binds” (FRS2 8-122 (Homo sapiens, UniProt Q8WU20); NMR; peptide).
For `B5 (CCDC22/CCDC93 DBD dimer)`, binding read “binds” (DENND10 (Homo sapiens, UniProt Q8TCE6); pull-down).
Under binding, `POL32 (Saccharomyces cerevisiae, UniProt P47110)` is recorded as “binds” (POL3 (Saccharomyces cerevisiae, UniProt P15436); mass photometry).
`QDEKVKESYV` has a binding intensity of 0.72 (human SCRIB PDZ3-4 tandem (MBP fusion); automated holdup; peptide, crude extract; concentration not given, uncorrected, unit not given; relative to: biotin control resin, higher = stronger binding).
For `B6 (RAB32 T39N)`, binding read “binds” (OPTN (Homo sapiens, UniProt Q96CV9); pull-down).
`SKKNNAASELANAYSSYVSQIRKHKRVSPNAAPR (Nup60 285-318 P297A (Saccharomyces cerevisiae, UniProt P39705); sequence looked up)` — result for binding: “binds” (NUP85/SEH1 Nup85 1-564 (Saccharomyces cerevisiae); pull-down; peptide).
Under binding, `B7 (PRIM2 1-265)` is recorded as “binds” (PRIM1 (Homo sapiens, UniProt P49642); SEC-SAXS).
For `B8 (Sgip1 69-156)`, binding read “binds” (AP2A2/AP2B1/AP2M1/AP2S1 core, lacking appendage domains (Mus musculus); pull-down).
For `nlpI (Escherichia coli, UniProt P0AFB1)`, binding read “binds” (protein N130K/N225K/Q284R (Escherichia coli, UniProt P37648); pull-down).
Under binding, `B9 (rasC Q62L/R164E)` is recorded as “binds” (racE T25N/S192D/E173R (Dictyostelium discoideum); pull-down).
`B10 (gld-3 860-949)`: binding “binds” (fbf-2 164-575 (Caenorhabditis elegans, UniProt Q09312); pull-down).
`B11 (SIN4 1-974)`: binding “binds” (GAL11 (Saccharomyces cerevisiae, UniProt P19659); cross-linking).
`B12 (SPP1 R5K)` — result for binding: “binds” (REC107 (Saccharomyces cerevisiae, UniProt P21651); pull-down).
`spt16 (Schizosaccharomyces pombe, UniProt O94267)` — result for binding: “binds” (abo1 (Schizosaccharomyces pombe, UniProt O14114); native gel).
For `B13`, binding read “binds” (MDM4 170-260 (Homo sapiens, UniProt O15151); NMR titration).
`B14 (HCK 78-138)`: binding “binds” (PIK3R1 80-724 (Homo sapiens, UniProt P27986); ITC).
`B15 (PSMA4)` — result for binding: “binds” (PSMG1 (Homo sapiens, UniProt O95456); cryo-EM).
`EEPSLLKKLLLAPA (PGC1α peptide residues 139-152; N-terminal 5-FAM)` — result for binding: “binds” (NR5A2 266-541 (Homo sapiens, UniProt O00482); fluorescence polarisation; peptide).

Some of these lines once more:
Under binding, `B7 (PRIM2 1-265)` is recorded as “binds” (PRIM1 (Homo sapiens, UniProt P49642); SEC-SAXS).
For `nlpI (Escherichia coli, UniProt P0AFB1)`, binding read “binds” (protein N130K/N225K/Q284R (Escherichia coli, UniProt P37648); pull-down).
`SKKNNAASELANAYSSYVSQIRKHKRVSPNAAPR (Nup60 285-318 P297A (Saccharomyces cerevisiae, UniProt P39705); sequence looked up)` — result for binding: “binds” (NUP85/SEH1 Nup85 1-564 (Saccharomyces cerevisiae); pull-down; peptide).
